# Experimental data of several laboratories.
# Every numbered part comes from another study and shows a few of its results, in no order. Changes are numbered by the printed parent chain.

# Sample 1 — technique: DHFR PCA, deep sequencing; matrix: yeast; together with: (+)-ABA 0.0091 µM; baseline: wild-type fitted maximum; reading: higher = stronger binding
# Target: ABI1, truncated, D143A, DHFR fusion (Arabidopsis thaliana)
# Setting: methotrexate growth selection, single substitutions
# Parent: PYL1, truncated, DHFR fusion (Arabidopsis thaliana); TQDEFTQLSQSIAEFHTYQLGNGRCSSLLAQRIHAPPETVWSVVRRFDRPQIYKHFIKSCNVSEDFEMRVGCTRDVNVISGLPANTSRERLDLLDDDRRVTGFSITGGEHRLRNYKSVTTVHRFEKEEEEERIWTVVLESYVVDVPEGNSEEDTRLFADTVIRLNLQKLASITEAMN
Change,relative binding score [%]
E38Y,-2.09
Y18C,-0.341
V100S,-0.574
T106W,-6.67
R32S,6.67
H110Y,12.3
E64A,30.9
F47T,-0.974
T39N,-6.2
H16K,-8.99
V62P,-1.96
N85H,74.5
V136M,5.5
Q7R,11.9
L94I,-0.0786
R155L,2.86
R69P,-12.6

# Sample 2 — technique: protein binding microarray; molecule type: double-stranded DNA, one strand shown; matrix: in vitro; tested at: not given; baseline: not given; reading: higher = stronger binding
# Target: Histone acetyltransferase KAT6A, winged helix 1, GST fusion (KAT6A, Homo sapiens, UniProt Q92794, residues 1-85)
# Setting: 8-mer, flanks averaged, mean of 2 arrays, mostly near background
# Construct (chain): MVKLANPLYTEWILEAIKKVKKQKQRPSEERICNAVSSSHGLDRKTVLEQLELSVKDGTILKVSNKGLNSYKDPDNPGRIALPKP
Strand,E-score
CTTAGTAC,0.0102
CAGAGTGG,-0.138
GGCGTTGA,0.137
ACAGATGC,-0.126
CTCTACGA,-0.159
GAATAGCC,0.0779
AAATGGTA,-0.151
ACCCTAAT,-0.178
GACTACAC,-0.0543
ACAAGTGT,-0.108
TAGACCCA,-0.26
ACCTTGAA,-0.178
CCTCTTGA,-0.245
CCCCGACA,0.0755
ACCCGTTA,0.315
ATGTATTG,-0.00752
ATCGCACC,0.0549
CAAAGCTG,-0.0345
CACGGCAG,0.272
AGGAAAAC,-0.124
AATATGGT,-0.146
ACCTTCTG,-0.138

# Sample 3 — target: FOS, bZIP domain (human); technique: DHFR protein complementation; matrix: yeast; baseline: wild-type JUN-FOS pair; reading: higher = stronger binding
# Setting: single substitutions, most at no-binding floor
# Parent: JUN, bZIP domain (human); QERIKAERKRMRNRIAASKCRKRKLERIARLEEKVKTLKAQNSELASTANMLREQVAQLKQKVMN; partner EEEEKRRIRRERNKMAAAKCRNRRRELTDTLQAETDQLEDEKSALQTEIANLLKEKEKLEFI
Change,binding fitness
Q41L,-0.144 natural log
N42Q,-0.738 natural log
L52M,-0.815 natural log
S47L,-0.0198 natural log
V35G,-1.08 natural log
A49T,-0.738 natural log
E33G,-0.299 natural log
E32P,-1.16 natural log
K34W,-0.0887 natural log
R53K,-0.12 natural log
T48M,-0.0369 natural log
Q55S,-0.236 natural log
Q55T,-0.0675 natural log
E33N,-0.215 natural log
E44G,-0.301 natural log
A46K,0.0856 natural log
L31Y,-0.35 natural log
I28N,-0.189 natural log
I28V,-0.0571 natural log
E33D,-0.114 natural log
L45Y,-0.61 natural log
I28Y,-0.251 natural log
M51E,0.019 natural log
R30E,0.199 natural log
K39C,-0.757 natural log

# Sample 4 — target: CCND3, cyclin fold, Cln2 fusion (human); technique: yeast growth competition, sequencing; matrix: yeast; setting: weak parent motif; baseline: not given; reading: higher = stronger binding
# Parent: CDKN1A docking peptide (human); SKACRRLFGPVDS; partner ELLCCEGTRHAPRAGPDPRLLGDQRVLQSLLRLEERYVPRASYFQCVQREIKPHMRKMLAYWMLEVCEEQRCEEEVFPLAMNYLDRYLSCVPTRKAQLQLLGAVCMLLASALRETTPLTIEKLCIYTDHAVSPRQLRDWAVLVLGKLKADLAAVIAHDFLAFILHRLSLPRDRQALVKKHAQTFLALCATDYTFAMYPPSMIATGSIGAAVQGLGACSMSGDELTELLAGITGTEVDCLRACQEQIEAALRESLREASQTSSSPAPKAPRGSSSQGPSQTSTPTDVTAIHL
Change,normalised enrichment score
SKACRRLHGPVDS [F8H],0.608
SKACRMLFGPVDS [R6M],1.09
SKKCRRLFGPVDS [A3K],0.738
SKPCRRLFGPVDS [A3P],0.532
SKACRRLFGVVDS [P10V],0.298
SKACRRLFGPTDS [V11T],0.375
SKACRRLFDPVDS [G9D],0.228
SKACRRLRGPVDS [F8R],0.182
SKASRRLFGPVDS [C4S],0.496
SKACRRLFHPVDS [G9H],0.246
SKACRRLFGPEDS [V11E],0.551
SKACRRFFGPVDS [L7F],0.0543
SKACRRLFGPVWS [D12W],0.474
SKACRRLFGQVDS [P10Q],-0.274
SKACRRLFGPVKS [D12K],0.12
SKACRRVFGPVDS [L7V],0.32
SKACYRLFGPVDS [R5Y],0.126
SKACKRLFGPVDS [R5K],0.274
SKAERRLFGPVDS [C4E],-0.0623
SKARRRLFGPVDS [C4R],0.23
SKACRRLFGTVDS [P10T],0.174
SKACRRLFMPVDS [G9M],0.458
SKACRRLYGPVDS [F8Y],-0.0773
SKACRRLFGRVDS [P10R],0.871
SKACRRLFGPWDS [V11W],0.765

# Excerpt of the above (sample 3):
Change,binding fitness
R53K,-0.12 natural log
T48M,-0.0369 natural log
Q55S,-0.236 natural log
Q55T,-0.0675 natural log
E33N,-0.215 natural log
E44G,-0.301 natural log
